# Results of several laboratories.
# Every numbered part comes from another study and shows a few of its results, in no order. Substitutions count along the parent as printed.

# Series 1 — technique: universal PBM; molecule type: double-stranded DNA, one strand shown; matrix: in vitro; tested at: 600 nM; direction: higher = stronger binding
# Target: Sal-like protein 4, full length isoform A (SALL4, Homo sapiens, UniProt Q9UJQ4, residues 1-1053)
# Chain of UniProt Q9UJQ4 (whole entry, looked up): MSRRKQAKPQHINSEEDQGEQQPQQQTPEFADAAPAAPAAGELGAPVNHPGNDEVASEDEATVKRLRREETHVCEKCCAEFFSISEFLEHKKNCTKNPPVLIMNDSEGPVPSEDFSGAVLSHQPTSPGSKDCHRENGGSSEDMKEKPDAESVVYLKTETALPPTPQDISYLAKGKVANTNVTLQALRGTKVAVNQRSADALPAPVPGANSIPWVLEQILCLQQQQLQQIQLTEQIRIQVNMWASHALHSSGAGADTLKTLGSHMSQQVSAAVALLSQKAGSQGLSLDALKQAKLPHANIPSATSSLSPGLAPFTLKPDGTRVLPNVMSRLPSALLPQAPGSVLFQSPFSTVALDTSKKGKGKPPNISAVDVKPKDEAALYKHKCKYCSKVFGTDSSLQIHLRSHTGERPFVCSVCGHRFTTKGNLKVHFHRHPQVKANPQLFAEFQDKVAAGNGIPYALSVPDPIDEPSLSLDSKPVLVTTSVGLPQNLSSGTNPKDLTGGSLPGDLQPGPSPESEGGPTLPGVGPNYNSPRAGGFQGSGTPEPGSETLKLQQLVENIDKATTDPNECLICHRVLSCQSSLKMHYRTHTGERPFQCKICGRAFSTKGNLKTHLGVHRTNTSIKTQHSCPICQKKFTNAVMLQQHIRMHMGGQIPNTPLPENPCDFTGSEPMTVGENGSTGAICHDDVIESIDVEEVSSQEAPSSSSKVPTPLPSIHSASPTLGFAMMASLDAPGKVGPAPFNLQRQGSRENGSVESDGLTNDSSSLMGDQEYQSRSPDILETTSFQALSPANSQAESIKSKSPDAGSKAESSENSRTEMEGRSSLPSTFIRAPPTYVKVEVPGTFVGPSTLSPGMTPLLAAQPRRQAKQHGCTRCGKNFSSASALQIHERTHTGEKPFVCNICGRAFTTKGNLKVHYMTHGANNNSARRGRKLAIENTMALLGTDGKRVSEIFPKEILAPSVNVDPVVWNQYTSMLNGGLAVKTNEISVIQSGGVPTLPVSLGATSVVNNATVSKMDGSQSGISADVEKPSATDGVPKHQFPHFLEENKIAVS
# Setting: 8-mer, flanks averaged, mean of replicates
Strand,E-score
GTATCAGA,0.0579
GTGCAGGA,-0.11
CTGCAAAG,-0.153
CCGATCCG,-0.336
CGGGCATA,-0.0749
GACACCCA,-0.196
ACAACGTA,0.0988
GAATTGAC,0.0289
GGTAAATA,0.259
CCCACATC,-0.0182
AACTTGGC,-0.0779
TCCGTCAA,0.102
AAAAGGTG,0.111
GTGCCCCA,-0.28
ATTAATGC,0.288
ATTTGTAA,0.354
CTGATCGC,-0.139
CGCAAGTA,0.0693
TCCATCGA,0.0838
AATAGGGA,-0.0408
CGCGTGTA,-0.0457

# Series 2 — technique: aptamer microarray, sandwich; molecule type: DNA with 2'F-ANA; matrix: in vitro; tested at: 200 nM; together with: Cy3 exosite-II aptamer, 400 nM; direction: higher = stronger binding; strand: GGTTGGTGTGGTTGG
# Target: Prothrombin, mature alpha-thrombin (F2, Homo sapiens, UniProt P00734)
# Setting: whole 15-mer aptamer, many near background
Modification,mean fluorescence intensity [a.u.]
2'F-ANA at 3 4 5 6 7 10 14,54.2
2'F-ANA at 3 4 5 6 11 13,64.6
2'F-ANA at 3 5 6 8 9 10 13 14,54.1
2'F-ANA at 2 3 6 8 14 15,399
2'F-ANA at 2 3 6 8 12 15,1030
2'F-ANA at 1 2 3 5 7 8 9 11 14,47.3
2'F-ANA at 1 5 6 7 8 9 10 11 12,55.4
2'F-ANA at 2 6 7 9 10 12 15,148
2'F-ANA at 7 10 13,158
2'F-ANA at 1 2 3 4 8 9 10 13 14 15,53.8
2'F-ANA at 1 4 7 8 9 12 13 15,214
2'F-ANA at 1 3 4 5 6 7 8 9 11 14 15,57.2
2'F-ANA at 1 2 3 4 5 6 9 10 12 13 15,53.7
2'F-ANA at 1 2 4 7 9 13 15,81.6
2'F-ANA at 7 10 12 13 15,236
2'F-ANA at 1 2 3 4 5 6 8 10 12 14,54.7
2'F-ANA at 3 6 7 10 11 13 15,459
2'F-ANA at 6 8 11 13,391
2'F-ANA at 2 3 4 5 6 10 11,50.1
2'F-ANA at 5 6 7 10 11 13 14 15,45.9
2'F-ANA at 1 2 5 7 9 10 11 14,44.7
2'F-ANA at 2 3 6 7 8 9 10 11 12 13 14 15,250
2'F-ANA at 2 4 6 7 12 13 14,108
2'F-ANA at 3 5 6 7 8 10 11 12 13 15,76.8
2'F-ANA at 2 4 6 7 11,211

# Series 3 — target: CCND2, cyclin fold, Cln2 fusion (human); technique: yeast growth competition, sequencing; matrix: yeast; setting: weak parent motif; reference: not given; direction: higher = stronger binding
# Starting sequence: WEE1 docking peptide (human); CTLRQKLIFSPCS
Substitution,normalised enrichment score
C12A,-0.149
I8A,-0.0505
L7A,-0.0437
F9A,-0.153
S10A,-0.0808
K6A,-0.0744
R4A,-0.224

# Series 4 — target: BATF2, bZIP domain (human); technique: DHFR protein complementation; matrix: yeast; reference: wild-type JUN-FOS pair; direction: higher = stronger binding
# Setting: single substitutions, most at no-binding floor
# Starting sequence: JUN, bZIP domain (human); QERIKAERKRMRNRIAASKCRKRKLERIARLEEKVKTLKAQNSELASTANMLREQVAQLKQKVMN; partner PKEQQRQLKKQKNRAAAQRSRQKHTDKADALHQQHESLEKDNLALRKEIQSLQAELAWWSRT
Substitution,binding fitness [natural log]
A57E,-0.188
A29I,-0.343
I28M,-0.236
A57Y,-0.577
T48A,-0.39
R30I,-0.238
R30W,-0.223
A40Q,-0.134
K34A,-0.155
Q55R,-0.245
L38E,-1.22
A29N,-0.435
E54H,-0.558
K39R,-0.161
A46G,-0.765
K36L,-0.333
V56A,-1.12
K34L,-0.325
N42T,-1.25
L31A,-0.757
L31K,-1.19
A29E,-0.442
T48N,-0.678
K36A,-0.132

# Series 5 — technique: DHFR PCA, deep sequencing; matrix: yeast; together with: (+)-ABA 0.39 µM; reference: wild-type fitted maximum; direction: higher = stronger binding
# Target: ABI1, truncated, D143A, DHFR fusion (Arabidopsis thaliana)
# Setting: methotrexate growth selection, single substitutions
# Starting sequence: PYL1, truncated, DHFR fusion (Arabidopsis thaliana); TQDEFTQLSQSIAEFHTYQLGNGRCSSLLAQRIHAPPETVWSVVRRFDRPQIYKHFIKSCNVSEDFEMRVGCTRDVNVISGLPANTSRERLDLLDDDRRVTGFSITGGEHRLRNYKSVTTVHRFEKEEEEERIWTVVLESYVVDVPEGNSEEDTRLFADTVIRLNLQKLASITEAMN; partner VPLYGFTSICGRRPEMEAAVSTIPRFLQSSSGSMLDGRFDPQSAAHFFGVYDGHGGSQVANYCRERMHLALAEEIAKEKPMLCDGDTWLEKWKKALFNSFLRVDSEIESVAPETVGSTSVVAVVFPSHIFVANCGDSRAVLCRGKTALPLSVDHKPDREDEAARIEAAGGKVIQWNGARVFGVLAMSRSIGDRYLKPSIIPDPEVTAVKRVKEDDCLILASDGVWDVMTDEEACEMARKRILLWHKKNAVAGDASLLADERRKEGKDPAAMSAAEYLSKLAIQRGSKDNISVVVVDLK
Substitution,relative binding score [%]
E129F,25
R88G,-7.57
E4N,15.5
E38M,2.19
R74F,-4.12
E4L,44.6
P37A,30.9
K168A,10.7
P36R,23.9
R88K,46.9
T1I,52.5
R99K,55.1
A175K,38.6
Q167F,-3.97
D153L,-6.01
N85W,53.2
T119C,8.24
E128Q,47.7
Q2F,69.4
L169Q,2.43
D97V,43.2

# Series 6 — technique: protein binding microarray; molecule type: double-stranded DNA, one strand shown; matrix: in vitro; tested at: not given; reference: not given; direction: higher = stronger binding
# Target: Histone acetyltransferase KAT6A, winged helix 2, GST fusion (KAT6A, Homo sapiens, UniProt Q92794, residues 85-181)
# Setting: 8-mer, flanks averaged, mean of 2 arrays, mostly near background
# Residues (chain): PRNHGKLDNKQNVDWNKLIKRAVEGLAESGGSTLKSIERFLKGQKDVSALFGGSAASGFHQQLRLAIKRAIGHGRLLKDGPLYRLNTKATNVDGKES
Strand,E-score
CGCGTCAG,0.0187
CGGGGGAA,0.171
GGTAAACC,-0.0679
CCCCTCCC,0.118
CAAACCGC,0.146
ACAACTAG,-0.194
ATGTAGGC,-0.0307
ACCTGTAA,-0.238
ATGTGTCG,-0.11
AGTACATA,-0.0183
TAACTGAA,-0.12
CTGGGGCA,0.141
CCTTCGTC,0.0996
CAGAGCAG,0.155
GTCGGTGA,-0.0878
ATATTTCA,0.111
AGCAGTCA,-0.0095
CACGGTGG,-0.0607
ATCACTCG,-0.152
ACAGTTAC,-0.048
CCAAACTA,-0.117

# Single results of other studies
Substance,target,assay,test system,setting,how to read,endpoint,result
"PhoQ, residues 284 288 289 292 302 303 TLASMF","PhoP, residues 12 14 15 18 19 HEGLL (Escherichia coli, UniProt P23836)","Sort-seq, item: YFP reporter",E. coli,"PhoQ-PhoP variant library, together with: 10 µM Mg2+","reference: high Mg2+ state, higher = stronger signaling",fold induction,12.8

# Some of these lines once more (series 5):
Substitution,relative binding score [%]
R88G,-7.57
P36R,23.9
E38M,2.19
D153L,-6.01
P37A,30.9
R88K,46.9
Q2F,69.4
